Measurements pooled from the literature.
Protocols differ between the studies behind these lines. Numbers after ± are the reported error. ≈ marks a conversion by molar mass, not a printed value.

CC[C@H](C)[C@H](NC(=O)[C@H](CCCCN)NC(=O)[C@H](CC(N)=O)NC(=O)[C@H](Cc1c[nH]c2ccccc12)NC(=O)[C@H](Cc1ccccc1)NC(=O)[C@H](CCCCN)NC(=O)[C@H](CCCNC(=N)N)NC(=O)[C@H](CC(C)C)NC(=O)[C@H](Cc1c[nH]c2ccccc12)NC(=O)[C@H](CCCCN)NC(=O)[C@H](CCCNC(=N)N)NC(=O)[C@H](CC(C)C)NC(=O)CNC(C)=O)C(=O)N[C@@H](CCCCN)C(=O)N[C@@H](CCCNC(=N)N)C(N)=O — geometric mean MIC (Gram-negative bacteria): 7.43 µM
COc1cc(/C=C/c2cc(/C=C/c3ccc(O)c(OC)c3)on2)ccc1O — inhibition (Spodoptera frugiperda; cell growth or viability, MTT; Sf9; 100 µM, 72 h): 70.6%
CC1(C)NCCC[C@]2(C)[C@H]3C=CC4=C5C[C@@](C)(CO)CC[C@]5(C)CC[C@@]4(C)[C@]3(C)CC[C@@H]12 — antiviral activity (Human cytomegalovirus; cytopathic effect; HFF, AD169; concentration not given): inactive
O=C(Nc1cc2nc(-c3ccccc3)cn2cn1)Oc1cccc([N+](=O)[O-])c1 — EC50 (Trypanosoma cruzi; 3T3 host cells, Tulahuen beta-galactosidase; 6 days): 9.8 µM
COC1C=COC2(C)Oc3c(C)c(O)c4c(c3C2=O)C2=NC3(CCN(CC(C)C)CC3)NC2=C(NC(=O)C(C)=CC=CC(C)C(O)C(C)C(O)C(C)C(OC(=O)Nc2cccnn2)C1C)C4=O (stereo not drawn) — MBC (Mycobacteroides abscessus; ATCC 19977; 1-log kill, replicating cultures): 0.06 µM (≈ 0.0556 µg/mL)
CC[C@@H](C)[C@@H](NC(=O)[C@@H](C)N)C(=O)N[C@H](CCCCN)C(=O)N[C@@H](C(=O)N[C@H](CCCNC(=N)N)C(=O)N[C@H](CCCCN)C(=O)N[C@H](CC(C)C)C(=O)N[C@H](Cc1ccccc1)C(=O)N[C@H](CCCCN)C(=O)N[C@H](CCCCN)C(=O)N[C@H](CC(C)C)C(=O)N[C@H](CC(C)C)C(=O)N[C@H](CCCNC(=N)N)C(N)=O)[C@H](C)CC — FICI (Escherichia coli; checkerboard; ATCC 25922; unit not given, with: levofloxacin; lower = stronger synergy): 0.375
CN(C)c1cc(CNCC(N)=O)c(O)c2c1C[C@H]1C[C@H]3[C@H](N(C)C)C(O)=C(C(N)=O)C(=O)[C@@]3(O)C(O)=C1C2=O — MIC (Streptococcus pneumoniae; ATCC 700905, Tet M ribosome protection): 2 µg/mL (≈ 3.68 µM)
C[C@@H](c1ccn(Cc2c(F)cccc2F)n1)[C@](O)(Cn1cnnn1)c1ccc(F)cc1F — MIC (Candida tropicalis; growth, broth microdilution; 2718; 24 h, 30 °C, ≥50% inhibition): < 0.008 µg/mL
Cc1n[nH]c(=O)c2nn(-c3ccccc3)c(C)c12 — selectivity index (Zika virus; Vero, MR766; reference: CC50 over EC50): 3.7
CN(C)c1cc(CNCc2ccccc2)c(O)c2c1C[C@H]1C[C@H]3[C@H](N(C)C)C(O)=C(C(N)=O)C(=O)[C@@]3(O)C(O)=C1C2=O — MIC (Streptococcus pneumoniae; microbial growth, broth dilution): 0.125 µg/mL (≈ 0.217 µM)
CCCCCc1ccc2c(c1O)C(c1ccc(OC)c(OC)c1)OC2=O (stereo not drawn) — IC90 (Naegleria fowleri; parasite growth, resazurin; ATCC30808; 48 h): 93.5 µM
S=c1[nH]c2cccc(Cl)c2n1CCOc1ccccc1 — inhibition (Saccharomyces cerevisiae; reporter gene, measured: Rlm1-lacZ; up to 20 µM, with: Calcofluor white): inhibited
Cc1ccc(-c2cn([C@H]3C[C@H](O)[C@@H](CO)O3)c3ncnc(N)c23)cc1Cl — EC50 (Trichomonas vaginalis; resorufin; G3, metronidazole-sensitive; 24 h + 2 h, 2% O2): 1.11 ± 0.05 µM
CN(C)c1cc(CNc2ccccc2)c(O)c2c1C[C@H]1C[C@H]3[C@H](N(C)C)C(O)=C(C(N)=O)C(=O)[C@@]3(O)C(O)=C1C2=O — MIC (Streptococcus pneumoniae; ATCC 700905, Tet M ribosome protection): 2 µg/mL (≈ 3.55 µM)
CC1(C)CC[C@]23CC[C@]4(C)[C@H](CC[C@@H]5[C@@]6(C)CCCNC(C)(C)[C@@H]6CC[C@]54C)[C@H]2[C@H]1OC3 — EC90 (Human cytomegalovirus; cytopathic effect; HFF, AD169): > 30 µM
